Measurements collected from several papers.
± marks the error that the study gave.
UniProt P53350, sequence (whole entry, looked up): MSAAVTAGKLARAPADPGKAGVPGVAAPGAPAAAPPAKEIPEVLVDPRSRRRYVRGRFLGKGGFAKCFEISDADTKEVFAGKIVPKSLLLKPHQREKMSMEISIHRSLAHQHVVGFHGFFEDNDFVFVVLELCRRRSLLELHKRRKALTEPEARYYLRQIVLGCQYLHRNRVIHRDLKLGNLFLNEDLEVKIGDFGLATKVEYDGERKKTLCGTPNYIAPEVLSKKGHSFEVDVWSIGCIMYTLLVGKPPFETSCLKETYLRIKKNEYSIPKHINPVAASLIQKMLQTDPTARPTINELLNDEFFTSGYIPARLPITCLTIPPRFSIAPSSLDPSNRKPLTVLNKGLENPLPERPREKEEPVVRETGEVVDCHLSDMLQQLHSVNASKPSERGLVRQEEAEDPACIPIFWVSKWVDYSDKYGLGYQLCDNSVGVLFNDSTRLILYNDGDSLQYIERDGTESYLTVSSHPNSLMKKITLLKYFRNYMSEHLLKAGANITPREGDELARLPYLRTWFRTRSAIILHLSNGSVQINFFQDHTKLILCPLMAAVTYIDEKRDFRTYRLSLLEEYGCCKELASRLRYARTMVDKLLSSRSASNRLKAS
UniProt P24735, sequence (whole entry, looked up): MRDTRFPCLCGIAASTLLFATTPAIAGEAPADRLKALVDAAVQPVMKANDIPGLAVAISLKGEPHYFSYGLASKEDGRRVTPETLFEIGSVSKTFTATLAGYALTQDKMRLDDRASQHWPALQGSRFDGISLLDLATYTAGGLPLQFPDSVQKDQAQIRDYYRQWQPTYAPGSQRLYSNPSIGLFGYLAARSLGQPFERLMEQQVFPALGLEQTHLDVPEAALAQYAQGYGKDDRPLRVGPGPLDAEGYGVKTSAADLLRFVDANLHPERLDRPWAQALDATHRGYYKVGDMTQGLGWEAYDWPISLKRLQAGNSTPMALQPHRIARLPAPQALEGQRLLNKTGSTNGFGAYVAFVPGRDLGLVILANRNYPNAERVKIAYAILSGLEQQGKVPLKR
UniProt Q86TU7, sequence (whole entry, looked up): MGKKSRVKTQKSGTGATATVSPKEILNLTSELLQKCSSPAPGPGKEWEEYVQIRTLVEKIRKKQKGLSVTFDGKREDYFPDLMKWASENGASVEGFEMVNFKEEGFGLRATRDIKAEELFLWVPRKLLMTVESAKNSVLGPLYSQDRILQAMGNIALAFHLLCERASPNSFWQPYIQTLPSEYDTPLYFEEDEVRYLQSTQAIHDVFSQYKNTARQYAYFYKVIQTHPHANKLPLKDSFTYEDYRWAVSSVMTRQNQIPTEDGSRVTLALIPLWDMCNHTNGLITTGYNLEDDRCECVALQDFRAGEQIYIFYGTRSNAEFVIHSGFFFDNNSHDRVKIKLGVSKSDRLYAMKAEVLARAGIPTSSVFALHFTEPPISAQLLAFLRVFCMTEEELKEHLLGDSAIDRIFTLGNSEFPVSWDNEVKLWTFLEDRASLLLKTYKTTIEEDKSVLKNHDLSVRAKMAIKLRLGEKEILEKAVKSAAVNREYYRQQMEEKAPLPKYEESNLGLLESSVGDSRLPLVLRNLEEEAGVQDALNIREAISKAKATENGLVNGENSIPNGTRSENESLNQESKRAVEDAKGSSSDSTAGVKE
UniProt P30101, sequence (whole entry, looked up): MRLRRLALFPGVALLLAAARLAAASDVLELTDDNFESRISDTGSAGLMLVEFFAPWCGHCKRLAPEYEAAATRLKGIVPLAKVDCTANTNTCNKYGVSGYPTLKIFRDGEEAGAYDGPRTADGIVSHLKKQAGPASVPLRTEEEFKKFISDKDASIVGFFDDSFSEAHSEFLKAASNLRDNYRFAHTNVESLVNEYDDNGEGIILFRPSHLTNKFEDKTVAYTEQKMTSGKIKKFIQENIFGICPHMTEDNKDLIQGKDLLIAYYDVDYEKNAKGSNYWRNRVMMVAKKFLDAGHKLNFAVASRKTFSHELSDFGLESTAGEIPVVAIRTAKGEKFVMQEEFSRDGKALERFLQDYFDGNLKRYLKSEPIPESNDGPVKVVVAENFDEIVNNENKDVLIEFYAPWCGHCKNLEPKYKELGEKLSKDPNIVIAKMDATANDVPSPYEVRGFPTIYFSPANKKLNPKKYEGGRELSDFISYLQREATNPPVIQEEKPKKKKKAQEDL
UniProt P25084, sequence (whole entry, looked up): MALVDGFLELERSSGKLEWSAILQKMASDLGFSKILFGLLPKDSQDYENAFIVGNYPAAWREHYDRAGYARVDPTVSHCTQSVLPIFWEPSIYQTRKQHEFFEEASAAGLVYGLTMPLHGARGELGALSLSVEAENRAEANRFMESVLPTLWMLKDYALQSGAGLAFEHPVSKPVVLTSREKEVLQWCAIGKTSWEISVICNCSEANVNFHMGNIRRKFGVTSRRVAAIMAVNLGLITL
UniProt P33261, sequence (whole entry, looked up): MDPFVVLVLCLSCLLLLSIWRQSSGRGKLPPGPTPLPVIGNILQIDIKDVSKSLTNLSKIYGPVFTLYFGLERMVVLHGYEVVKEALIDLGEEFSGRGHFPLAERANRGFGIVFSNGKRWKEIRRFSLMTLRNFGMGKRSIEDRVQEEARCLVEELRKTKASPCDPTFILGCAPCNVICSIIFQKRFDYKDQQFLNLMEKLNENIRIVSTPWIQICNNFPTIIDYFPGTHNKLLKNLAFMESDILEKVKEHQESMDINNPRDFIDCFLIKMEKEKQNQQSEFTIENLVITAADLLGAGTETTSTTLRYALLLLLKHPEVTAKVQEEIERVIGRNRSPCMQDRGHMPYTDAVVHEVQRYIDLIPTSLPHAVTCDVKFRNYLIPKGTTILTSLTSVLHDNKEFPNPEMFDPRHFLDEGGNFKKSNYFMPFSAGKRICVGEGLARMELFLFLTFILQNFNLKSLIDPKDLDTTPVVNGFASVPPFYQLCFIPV
UniProt P26276, sequence (whole entry, looked up): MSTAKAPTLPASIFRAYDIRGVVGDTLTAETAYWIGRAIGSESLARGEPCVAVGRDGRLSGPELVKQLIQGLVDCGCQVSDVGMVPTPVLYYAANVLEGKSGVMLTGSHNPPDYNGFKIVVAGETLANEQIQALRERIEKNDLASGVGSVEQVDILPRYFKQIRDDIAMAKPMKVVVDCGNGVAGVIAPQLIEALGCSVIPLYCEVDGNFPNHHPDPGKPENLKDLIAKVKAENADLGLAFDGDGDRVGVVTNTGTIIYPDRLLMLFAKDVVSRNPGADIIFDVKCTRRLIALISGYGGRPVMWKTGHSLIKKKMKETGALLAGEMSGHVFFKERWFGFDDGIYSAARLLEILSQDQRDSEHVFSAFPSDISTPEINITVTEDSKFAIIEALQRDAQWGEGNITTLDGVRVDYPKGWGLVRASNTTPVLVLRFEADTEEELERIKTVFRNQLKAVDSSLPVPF
UniProt P52699, sequence (whole entry, looked up): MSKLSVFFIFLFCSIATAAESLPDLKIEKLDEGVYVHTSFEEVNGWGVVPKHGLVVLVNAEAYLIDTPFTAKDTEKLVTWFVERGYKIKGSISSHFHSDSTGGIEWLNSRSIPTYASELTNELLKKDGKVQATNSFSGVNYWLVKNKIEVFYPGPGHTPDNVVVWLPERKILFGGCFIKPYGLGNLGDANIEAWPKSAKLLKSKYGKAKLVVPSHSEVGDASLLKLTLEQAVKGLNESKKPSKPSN
UniProt C7C422, sequence (whole entry, looked up): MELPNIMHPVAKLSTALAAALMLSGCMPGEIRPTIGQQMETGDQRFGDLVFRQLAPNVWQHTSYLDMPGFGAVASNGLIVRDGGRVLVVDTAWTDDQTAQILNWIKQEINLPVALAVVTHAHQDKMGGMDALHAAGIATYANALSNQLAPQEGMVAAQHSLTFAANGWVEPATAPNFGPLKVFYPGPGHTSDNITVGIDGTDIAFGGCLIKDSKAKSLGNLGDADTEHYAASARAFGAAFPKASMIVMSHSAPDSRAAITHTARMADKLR
UniProt P26718, sequence (whole entry, looked up): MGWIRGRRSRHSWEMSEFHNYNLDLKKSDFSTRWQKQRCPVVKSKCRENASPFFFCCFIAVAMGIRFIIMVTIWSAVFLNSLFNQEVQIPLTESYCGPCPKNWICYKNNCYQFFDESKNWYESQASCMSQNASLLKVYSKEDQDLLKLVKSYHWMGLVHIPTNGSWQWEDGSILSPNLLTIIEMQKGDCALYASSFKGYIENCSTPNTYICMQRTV
UniProt P50391, sequence (whole entry, looked up): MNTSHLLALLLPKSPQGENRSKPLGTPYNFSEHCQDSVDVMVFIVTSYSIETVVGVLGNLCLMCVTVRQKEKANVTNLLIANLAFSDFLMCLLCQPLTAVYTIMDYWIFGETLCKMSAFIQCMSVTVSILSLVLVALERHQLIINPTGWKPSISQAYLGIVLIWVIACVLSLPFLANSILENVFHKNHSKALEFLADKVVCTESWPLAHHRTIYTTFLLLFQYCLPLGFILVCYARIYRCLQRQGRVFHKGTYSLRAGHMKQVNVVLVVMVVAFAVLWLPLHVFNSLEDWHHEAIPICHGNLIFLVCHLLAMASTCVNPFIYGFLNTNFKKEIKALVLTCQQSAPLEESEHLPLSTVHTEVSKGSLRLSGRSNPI
UniProt Q13705, sequence (whole entry, looked up): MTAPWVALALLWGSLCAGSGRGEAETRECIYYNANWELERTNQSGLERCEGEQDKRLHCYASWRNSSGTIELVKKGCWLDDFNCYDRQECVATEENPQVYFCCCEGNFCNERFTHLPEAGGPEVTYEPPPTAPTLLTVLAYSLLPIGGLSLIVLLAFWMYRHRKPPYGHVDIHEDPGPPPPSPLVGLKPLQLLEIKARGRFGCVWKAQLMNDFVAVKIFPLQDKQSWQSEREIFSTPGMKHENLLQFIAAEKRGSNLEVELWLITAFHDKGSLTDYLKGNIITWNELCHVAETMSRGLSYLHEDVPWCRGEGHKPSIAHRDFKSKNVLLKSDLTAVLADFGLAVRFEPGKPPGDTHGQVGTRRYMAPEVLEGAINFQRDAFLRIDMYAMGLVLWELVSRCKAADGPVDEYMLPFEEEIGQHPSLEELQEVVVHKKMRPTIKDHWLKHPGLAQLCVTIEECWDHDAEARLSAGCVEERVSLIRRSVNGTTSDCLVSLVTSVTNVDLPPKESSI

Structure (SMILES) | target | assay | system | setting | IC50 [µM]
NC(=O)c1cccc(CCN(CC[C@H](N)C(=O)O)C[C@H]2O[C@@H](n3cnc4c(N)ncnc43)[C@H](O)[C@@H]2O)c1 | Actin-histidine N-methyltransferase (SETD3, Homo sapiens, UniProt Q86TU7) | enzyme activity, inhibitor, radiometric |  |  | 23
C[C@]1(COC(=O)Cc2ccc(O)c(O)c2)[C@H](C(=O)O)N2C(=O)/C(=C/c3ccccn3)[C@H]2S1(=O)=O | Beta-lactamase (ampC, Pseudomonas aeruginosa, UniProt P24735) | inhibitor |  | with: nitrocefin | 0.0061 ± 0.0019
CC[C@@H]1C(=O)N(C)c2cnc(Oc3ccc(C(=O)NCCCC[C@H](NC(=O)COCCOCCNC(=O)COCCOCCNC(=O)COCCOCCNC(=O)COCCOCCNC(=O)[C@@H](NC(=O)[C@H](CO)NC(=O)[C@H](Cc4cncn4CCCCCCCCc4ccccc4)NC(=O)[C@H](CC(C)C)NC(=O)[C@@H]4CCCN4C(C)=O)[C@@H](C)OP(=O)(O)O)C(N)=O)cc3OC)nc2N1C1CCCC1 | Serine/threonine-protein kinase PLK1 (PLK1, Homo sapiens, UniProt P53350) | enzyme activity, inhibitor, FRET |  |  | 0.71
O=C1c2c(O)cc(O)cc2OC2(c3ccc(O)cc3)Oc3cc4oc(-c5ccc(O)c(O)c5)c(O)c(=O)c4c(O)c3C12O (racemic) | mushroom tyrosinase |  |  | pH 6.8 | 39.8
CC[C@H](C)[C@H]1C(=O)O[C@H](C(C)C)C(=O)N(C)[C@@H]([C@@H](C)CC)C(=O)O[C@H](C(C)C)C(=O)N(C)[C@@H]([C@@H](C)CC)C(=O)O[C@H](C(C)C)C(=O)N1C | Hsp90 chaperone machine | progesterone receptor hormone-binding recovery, inhibitor, reconstitution in rabbit reticulocyte lysate |  | with: [3H]progesterone | ~5
CC[C@H](C)[C@@H]1NC(=O)[C@H](CCCNC(=N)N)NC(=O)[C@@H]2CCCN2C(=O)[C@H](C(C)C)NC(=O)[C@H](CO)NC(=O)[C@H]([C@@H](C)O)NC(=O)CNC(=O)[C@H](CC(=O)O)NC(=O)[C@@H](NC(=O)[C@@H](N)C(C)C)CSSC[C@@H](C(=O)N[C@H](C(=O)O)C(C)C)NC1=O | Activin receptor type-2B (ACVR2B, Homo sapiens, UniProt Q13705) | reporter gene, antagonist, measured: Smad2/3 | HEK293T | 4 h, with: GDF11 1 ng/mL | > 100
CSCC[C@H](NC(=O)[C@@H](N)CCCNC(=N)N)C(=O)N[C@@H](CO)C(=O)N[C@@H](C)C(=O)N1CCC[C@H]1C(=O)N[C@@H](CO)C(=O)N[C@H](C(=O)NCC(=O)NCC(=O)N[C@H](C(=O)O)C(C)C)[C@@H](C)O | HLA class I histocompatibility antigen, A alpha chain, allele A*02:03 (Homo sapiens, UniProt P04439) | peptide binding, binding |  | HLA-A2 subtype | 0.747
CC(=O)N[C@@H](CCCNC(=N)N)C(=O)N[C@@H](Cc1ccc(O)cc1)C(=O)N[C@@H](CCCNC(=N)N)C(=O)N[C@@H](CC(C)C)C(=O)N[C@@H](CCCNC(=N)NC(=O)NCCCCN)C(=O)N[C@@H](Cc1ccc(O)cc1)C(N)=O | Neuropeptide Y receptor type 4 (NPY4R, Homo sapiens, UniProt P50391) | β-arrestin 2 recruitment, antagonist | HEK293T | with: 3 nM human pancreatic polypeptide | 8.05 ± 0.12
COC(=O)C=CCCC(NC(=O)c1ccncc1C(=O)O)C(=O)NC(C(=O)N1CC(=O)CC1C(=O)NC(C(=O)NC(C(N)=O)C1CCCCC1)C1CCCCC1)C(C)(C)C (centres unmarked) | Coagulation factor XIII A chain (Canis lupus familiaris, UniProt A0A8I3S1X8) | isopeptidase activity, inhibitor |  | dog enzyme, with: substrate A101 | 0.028 ± 0.0006
CCC(=O)C(NC(=O)c1ccccc1-c1ccc(C(F)(F)F)cc1)c1cccc(C(F)(F)F)c1 (centres unmarked) | NKG2-D type II integral membrane protein, with MICA (KLRK1, Homo sapiens, UniProt P26718) | ligand binding, inhibitor, TR-FRET | HEK293 expressing NKG2D and DAP10 | with: MICA-Alexa647 | 3 ± 0.4
CS(=O)(=O)SCCS(=O)(=O)O | arsenite methyltransferase (Chlamydomonas reinhardtii, UniProt K0BVM7) |  |  |  | 320
CC(C)[C@H](NC(=O)[C@@H]1CCNC(=O)NCCC[C@@H](NC(=O)[C@@H](N)Cc2ccc(O)cc2)C(=O)NCC(=O)N[C@@H](Cc2ccccc2)C(=O)N1)C(=O)N[C@H](C(=O)NCC(=O)NCCNC(N)=O)C(C)C | Delta-type opioid receptor (Oprd1, Mus musculus, UniProt P32300) | contraction inhibition, agonist | mouse, isolated vas deferens |  | 0.0205 ± 0.004
CCCCCCCCCC(=O)N[C@@H](CCCNC(=N)N)C(=O)N[C@H](C(=O)N[C@@H](CCCCN)C(=O)N[C@@H](CCCNC(=N)N)C(=O)CCl)C(C)C | Proprotein convertase subtilisin/kexin type 7 (Homo sapiens, UniProt Q16549) | enzyme activity, inhibitor |  |  | 0.000251
CNC(=O)CNc1cnc2ccc(-c3ccc(OC)c(OC)c3)cc2n1 | Phosphatidylinositol 4-kinase (Cryptosporidium parvum, UniProt Q5CVD3) | enzyme activity |  | with: ATP 3 µM | 7.3 ± 0.841
C[C@H](CS)C(=O)Nc1ccccc1-c1nn[nH]n1 | Metallo-beta-lactamase type 2 (Serratia marcescens, UniProt P52699) | inhibitor |  | 10 min preincubation, with: FC5 substrate | 9.87
O=C(NC12CC3CC(CC(C3)C1)C2)c1cc2cc(Cl)ccc2[nH]1 | Cytochrome P450 2C19 (CYP2C19, Homo sapiens, UniProt P33261) | inhibitor |  |  | 21
O=C(CCS)Nc1cccc(-c2nn[nH]n2)c1 | Metallo-beta-lactamase type 2 (blaNDM-1, Klebsiella pneumoniae, UniProt C7C422) | enzyme activity, inhibitor, fluorescence |  | with preincubation | 6.1
CC[C@H](C)[C@H](NC(=O)[C@H](C)N)C(=O)N[C@@H](CCCNC(=N)N)C(=O)N[C@@H](Cc1c[nH]cn1)C(=O)N[C@@H](CCCNC(=N)N)C(=O)N[C@H](C(=O)N[C@@H](CC(N)=O)C(=O)N[C@@H](CC(N)=O)C(=O)N[C@@H](CO)C(=O)N[C@H](C(=O)N[C@@H](Cc1c[nH]c2ccccc12)C(=O)N[C@@H](CCCNC(=N)N)C(=O)N[C@@H](CC(=O)O)C(=O)N[C@H](C(=O)N[C@@H](Cc1ccccc1)C(=O)N[C@@H](CC(C)C)C(=O)N[C@@H](CCCCN)C(=O)N[C@@H](CCCNC(=N)N)C(=O)N[C@@H](CCCCN)C(=O)O)[C@@H](C)CC)[C@@H](C)CC)[C@@H](C)CC | Sensor histidine kinase ComD (Streptococcus gordonii, UniProt O33646) |  |  |  | > 1
CCCCCCCCCNC(=O)CC(=O)c1ccccc1 | Transcriptional activator protein LasR (lasR, Pseudomonas aeruginosa, UniProt P25084) | reporter gene, antagonist | Escherichia coli, JLD271 with LasR plasmid | with: OdDHL 2 nM | 2.3
CC(=O)N(CCCCCCc1ccccc1)CC(=O)N[C@@H](CC(C)C)C(=O)N[C@@H](Cc1c[nH]cn1)C(=O)N[C@@H](CO)C(=O)N[C@H](C(N)=O)[C@@H](C)CP(=O)(O)O | Serine/threonine-protein kinase PLK1, polo-box (PLK1, Homo sapiens, UniProt P53350) | ligand displacement, FP |  |  | 0.071
O=P(O)(O)OC[C@H]1O[C@@](O)(C(F)(F)F)[C@H](O)[C@@H](O)[C@@H]1O | algC (Pseudomonas aeruginosa, UniProt P26276) | enzyme activity, inhibitor |  | pH 7.4, 25 °C, with: alpha-glucose 1-phosphate 20 µM | 345 ± 55
CCOC(=O)C1CN1S(=O)(=O)c1ccc(C)cc1 (centres unmarked) | Protein disulfide-isomerase A3 (PDIA3, Homo sapiens, UniProt P30101) | enzyme activity, inhibitor, absorbance |  | pH 7.6 | 23
CCN(Cc1ccccc1)C(=O)CCc1nc(CN2CCN(C(=O)Cc3ccc(OC)c(OC)c3)CC2)no1 | Sodium channel protein type 11 subunit alpha (Scn11a, Rattus norvegicus, UniProt O88457) | ion current, inhibitor, whole-cell patch clamp | rat DRG neurons |  | 0.16 ± 0.05

Repeated from above:
Structure (SMILES) | target | assay | system | setting | IC50 [µM]
O=C(CCS)Nc1cccc(-c2nn[nH]n2)c1 | Metallo-beta-lactamase type 2 (blaNDM-1, Klebsiella pneumoniae, UniProt C7C422) | enzyme activity, inhibitor, fluorescence |  | with preincubation | 6.1
CC[C@H](C)[C@H](NC(=O)[C@H](C)N)C(=O)N[C@@H](CCCNC(=N)N)C(=O)N[C@@H](Cc1c[nH]cn1)C(=O)N[C@@H](CCCNC(=N)N)C(=O)N[C@H](C(=O)N[C@@H](CC(N)=O)C(=O)N[C@@H](CC(N)=O)C(=O)N[C@@H](CO)C(=O)N[C@H](C(=O)N[C@@H](Cc1c[nH]c2ccccc12)C(=O)N[C@@H](CCCNC(=N)N)C(=O)N[C@@H](CC(=O)O)C(=O)N[C@H](C(=O)N[C@@H](Cc1ccccc1)C(=O)N[C@@H](CC(C)C)C(=O)N[C@@H](CCCCN)C(=O)N[C@@H](CCCNC(=N)N)C(=O)N[C@@H](CCCCN)C(=O)O)[C@@H](C)CC)[C@@H](C)CC)[C@@H](C)CC | Sensor histidine kinase ComD (Streptococcus gordonii, UniProt O33646) |  |  |  | > 1
